Literature values as cited in several papers.
Compare with care: the assays were run in different laboratories. “And” joins repeats or separate records; there may be more than shown. ± gives the spread as reported.
Sequence of UniProt Q91XE4 (whole entry, looked up): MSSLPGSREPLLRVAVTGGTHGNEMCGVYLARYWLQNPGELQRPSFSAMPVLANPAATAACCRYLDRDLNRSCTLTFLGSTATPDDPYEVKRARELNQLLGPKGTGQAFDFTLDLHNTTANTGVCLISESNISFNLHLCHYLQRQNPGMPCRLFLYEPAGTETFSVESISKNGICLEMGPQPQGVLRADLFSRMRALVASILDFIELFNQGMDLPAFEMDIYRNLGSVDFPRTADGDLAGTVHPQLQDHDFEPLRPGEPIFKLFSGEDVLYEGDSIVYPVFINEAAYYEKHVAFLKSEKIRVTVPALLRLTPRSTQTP

| SMILES | target or system | assay | test system | conditions | how to read | endpoint | result |
| --- | --- | --- | --- | --- | --- | --- | --- |
| CC1Oc2ccccc2C=C1C=C1SC(=O)NC1=O (centres unmarked) | Mycobacterium tuberculosis | – | H37Rv | – | – | MIC | 0.36 µM |
| Nc1nc(O)c2ncn(COC(CO)CO)c2n1 | human cytomegalovirus | viral replication | UL97 F342Y mutant | concentration not given | relative to: wild type | cross-resistance fold change | 6 fold |
| COc1ccc2c3c1O[C@H]1[C@@H](O)CC[C@@]4(O)[C@@H](C2)N(C)CC[C@]314 | – | analgesia, Haffner tail-clip test | mouse | subcutaneous | – | ED50 | 10 mg/kg |
| C[C@H]1c2cccc(O)c2C(=O)C2=C(O)[C@]3(O)C(=O)C(C(N)=O)=C(O)[C@@H](N(C)C)[C@@H]3[C@@H](O)[C@@H]21 | Mycobacterium tuberculosis | – | H37Ra | – | – | MIC | 1 mg/L |
| CC1(C)NC(=O)N(c2ccc(F)c(C(F)(F)F)c2)C1=O | Schistosoma mansoni | – | juvenile, infected mice | oral, 100 mg/kg single dose | – | worm burden reduction | 64% |
| N#CC(=Cc1ccc(O)cc1)C(=O)O | human neutrophils | anion exchange, inhibitor | – | added: Cl- | – | Ki | 290 µM |
| O=c1oc2cc(O)ccc2c2oc3cc(O)ccc3c12 | – | ABTS radical scavenging | – | – | – | IC50 | 12.2 mg/L |
| O=C(NC(=O)c1c(F)cccc1F)Nc1cc(Cl)c(OC(F)(F)C(F)F)c(Cl)c1 | CYP2C9 | inhibitor | – | Tox21 screening | – | IC50 | 28.5 ± 13.1 µM |
| CC1(C)NC(=O)N(c2ccc(F)c(C(F)(F)F)c2)C1=O | Schistosoma mansoni | – | juvenile worms, mouse | oral, 50 mg/kg single dose | – | worm burden reduction | 0% |
| CN[C@H](CC(C)C)C(=O)N[C@H]1C(=O)N[C@@H](CC(N)=O)C(=O)N[C@H]2C(=O)N[C@H]3C(=O)N[C@H](C(=O)N[C@H](C(=O)O)c4cc(O)cc(O)c4-c4cc3ccc4O)[C@H](O)c3ccc(c(Cl)c3)Oc3cc2cc(c3O[C@@H]2O[C@H](CO)[C@@H](O)[C@H](O)[C@H]2O[C@H]2C[C@](C)(N)[C@H](O)[C@H](C)O2)Oc2ccc(cc2Cl)[C@H]1O | Mycobacterium tuberculosis | – | H37Ra | – | – | MIC | 65 mg/L |
| C=C1CCC2C(C1)c1c(OC)cc(C(C)(C)CCCCCC)cc1OC2(C)C (centres unmarked) | CB1 receptor | binding | – | – | – | Ki | 0.529 µM |
| CCCNC(=O)NS(=O)(=O)c1ccc(Cl)cc1 | – | – | mouse | – | – | fraction unbound | 0.441 |
| CN1CC[C@]23c4c5ccc(O)c4O[C@H]2[C@@H](O)CC[C@@]3(O)[C@H]1C5 | – | antinociception | mouse | subcutaneous | – | ED50 | 1.1 mg/kg |
| COc1ccc2c(c1)[nH]c1c(C)nccc12 | human CLK4 | kinase activity, inhibitor | – | – | – | IC50 | 0.05 µM |
| O=c1[nH]c(-c2cccc(-c3nnn[nH]3)c2)ncc1O | influenza endonuclease | enzyme activity, inhibitor | – | – | – | IC50 | 0.48 µM |
| Cc1c(C(=O)NN2CCCCC2)nn(-c2ccc(Cl)cc2Cl)c1-c1ccc(N)cc1 | CB2 receptor | binding | – | – | – | Ki | 0.958 µM |
| CN1CC[C@]23c4c5ccc(O)c4O[C@H]2[C@@H](O)CC[C@H]3[C@H]1C5 | – | antinociception | mouse | subcutaneous | – | ED50 | 1.8 mg/kg |
| CC(=O)[C@H]1CC[C@H]2[C@@H]3CC[C@H]4C[C@@H](O)CC[C@]4(C)[C@H]3CC[C@]12C | – | – | male NIH Swiss mice | dose not given, 6 Hz seizure model | – | seizure protection | inactive |
| N/C(CC(O)c1cc2c(F)cc(F)cc2c2cc(C(F)(F)F)ccc12)=N\c1ccc(F)cc1 (centres unmarked) | Plasmodium falciparum | parasite growth | Dd2 Pfcarl I1139K (GNF156-resistant) | – | – | IC50 | 0.007 µM |
| N[C@@H]1C[C@H]1c1ccccc1 | tyramine oxidase (Arthrobacter sp.) | – | – | pH 7.2 | – | IC50 | 35 µM and 33 µM |
| O=C1c2c(O)cc(O)cc2OC(c2ccc(O)c(O)c2)C1O (centres unmarked) | – | ABTS radical scavenging | – | – | – | IC50 | 0.83 mg/L |
| Cn1cc2cc(C(F)(F)c3nnc4ccc(-c5cnn(C6CC6)c5)nn34)c(F)cc2n1 | – | – | human, MET-altered NSCLC patients | dose not given, phase I | – | objective response rate | 30.5% |
| CC(=O)N[C@@H](CSC(Cl)=CCl)C(=O)O | N-acyl-aromatic-L-amino acid amidohydrolase (carboxylate-forming) (Acy3, Mus musculus, UniProt Q91XE4) | substrate | – | added: Co2+ 0.1 mM | – | Km | 300 µM |
| CO[C@H]1/C=C/O[C@@]2(C)Oc3c(C)c(O)c4c(O)c(c(/C=N/N5CCN(C)CC5)c(O)c4c3C2=O)NC(=O)/C(C)=C\C=C\[C@H](C)[C@H](O)[C@@H](C)[C@@H](O)[C@@H](C)[C@H](OC(C)=O)[C@@H]1C | Mycobacterium tuberculosis | – | H37Ra | – | – | MIC | 0.06 mg/L |
| O=C(O)C(F)(F)C(F)(F)C(F)(F)C(F)(F)C(F)(F)C(F)(F)C(F)(F)C(F)(F)F | CYP2D6 | inhibitor | – | Tox21 screening | – | IC50 | inactive |
| CCCCCOc1ccc(-c2ccc(-c3ccc(C(=O)N[C@H]4C[C@@H](O)[C@@H](O)NC(=O)[C@@H]5[C@@H](O)[C@@H](C)CN5C(=O)[C@H]([C@@H](C)O)NC(=O)[C@H]([C@H](O)[C@@H](O)c5ccc(O)cc5)NC(=O)[C@@H]5C[C@@H](O)CN5C(=O)[C@H]([C@@H](C)O)NC4=O)cc3)cc2)cc1 | – | – | severe hepatic impairment patients | 50 mg single dose | – | AUC(0-inf) | 46.6 ± 14.1 µg·h/mL |
| CCCCCc1cc(O)cc(O)c1 | – | DMPD radical scavenging | – | – | – | IC50 | 19.2 mg/L |
| CN(C)CCCN1c2ccccc2Sc2ccc(Cl)cc21 | – | – | human | – | – | fraction unbound | 0.003 |
| CN1CC[C@]23c4c5ccc(O)c4O[C@H]2[C@@H](O)CC[C@@]3(O)[C@H]1C5 | – | analgesia, Haffner tail-clip test | mouse | subcutaneous | – | ED50 | 1.3 mg/kg |

Some of these lines once more:
| SMILES | target or system | assay | test system | conditions | how to read | endpoint | result |
| --- | --- | --- | --- | --- | --- | --- | --- |
| CO[C@H]1/C=C/O[C@@]2(C)Oc3c(C)c(O)c4c(O)c(c(/C=N/N5CCN(C)CC5)c(O)c4c3C2=O)NC(=O)/C(C)=C\C=C\[C@H](C)[C@H](O)[C@@H](C)[C@@H](O)[C@@H](C)[C@H](OC(C)=O)[C@@H]1C | Mycobacterium tuberculosis | – | H37Ra | – | – | MIC | 0.06 mg/L |
| O=C1c2c(O)cc(O)cc2OC(c2ccc(O)c(O)c2)C1O (centres unmarked) | – | ABTS radical scavenging | – | – | – | IC50 | 0.83 mg/L |
| N/C(CC(O)c1cc2c(F)cc(F)cc2c2cc(C(F)(F)F)ccc12)=N\c1ccc(F)cc1 (centres unmarked) | Plasmodium falciparum | parasite growth | Dd2 Pfcarl I1139K (GNF156-resistant) | – | – | IC50 | 0.007 µM |
| O=C(O)C(F)(F)C(F)(F)C(F)(F)C(F)(F)C(F)(F)C(F)(F)C(F)(F)C(F)(F)F | CYP2D6 | inhibitor | – | Tox21 screening | – | IC50 | inactive |
